{"data": "Measurements collected from several papers", "note": "Each numbered part is a random draw from the data of one study; scales do not carry over between parts."}
{"data": "Study 1", "target": "Histone acetyltransferase KAT6A, winged helix 1, GST fusion (KAT6A, Homo sapiens, UniProt Q92794, residues 1-85)", "technique": "protein binding microarray", "form": "double-stranded DNA, one strand shown", "matrix": "in vitro", "concentration": "not given", "setting": "8-mer, flanks averaged, mean of 2 arrays, mostly near background", "baseline": "not given", "direction": "higher = stronger binding", "Residues (chain)": "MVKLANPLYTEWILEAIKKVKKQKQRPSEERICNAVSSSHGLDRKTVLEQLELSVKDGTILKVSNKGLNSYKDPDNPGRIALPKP"}
{"Strand": "CGCGAGAG", "E-score": 0.343}
{"Strand": "ACTTAAGA", "E-score": 0.0236}
{"Strand": "GTCCCTAA", "E-score": -0.116}
{"Strand": "CAGCAGAG", "E-score": -0.212}
{"data": "Study 2", "target": "Sal-like protein 4, full length isoform A (SALL4, Homo sapiens, UniProt Q9UJQ4, residues 1-1053)", "technique": "universal PBM", "form": "double-stranded DNA, one strand shown", "matrix": "in vitro", "concentration": "600 nM", "setting": "8-mer, flanks averaged, mean of replicates", "direction": "higher = stronger binding", "sequence of UniProt Q9UJQ4 (whole entry, looked up)": "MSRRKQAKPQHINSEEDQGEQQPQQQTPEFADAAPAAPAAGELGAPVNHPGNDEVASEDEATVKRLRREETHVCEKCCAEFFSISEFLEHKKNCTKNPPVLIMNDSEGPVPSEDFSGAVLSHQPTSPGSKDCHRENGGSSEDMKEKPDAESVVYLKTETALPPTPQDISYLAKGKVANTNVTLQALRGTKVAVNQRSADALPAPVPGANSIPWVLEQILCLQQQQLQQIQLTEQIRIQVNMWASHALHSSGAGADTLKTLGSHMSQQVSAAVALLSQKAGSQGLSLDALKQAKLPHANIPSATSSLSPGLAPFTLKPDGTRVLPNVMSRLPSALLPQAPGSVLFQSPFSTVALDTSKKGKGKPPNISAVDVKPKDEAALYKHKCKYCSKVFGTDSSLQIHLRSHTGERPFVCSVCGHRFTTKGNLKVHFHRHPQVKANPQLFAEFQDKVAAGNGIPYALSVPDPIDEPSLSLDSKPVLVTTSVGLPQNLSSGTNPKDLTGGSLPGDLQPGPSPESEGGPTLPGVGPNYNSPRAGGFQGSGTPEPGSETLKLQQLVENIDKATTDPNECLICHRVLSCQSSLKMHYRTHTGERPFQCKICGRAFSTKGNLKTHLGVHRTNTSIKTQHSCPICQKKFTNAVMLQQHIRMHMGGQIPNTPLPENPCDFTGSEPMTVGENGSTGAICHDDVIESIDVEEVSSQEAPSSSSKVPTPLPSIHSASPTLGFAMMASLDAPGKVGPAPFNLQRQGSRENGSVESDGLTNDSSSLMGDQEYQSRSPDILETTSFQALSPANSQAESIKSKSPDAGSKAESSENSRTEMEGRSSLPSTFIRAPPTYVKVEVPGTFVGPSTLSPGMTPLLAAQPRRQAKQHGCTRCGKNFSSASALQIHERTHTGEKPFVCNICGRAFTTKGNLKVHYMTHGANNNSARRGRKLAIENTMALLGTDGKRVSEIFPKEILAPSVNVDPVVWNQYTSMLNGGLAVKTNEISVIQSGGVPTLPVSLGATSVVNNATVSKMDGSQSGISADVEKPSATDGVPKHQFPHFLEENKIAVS"}
{"Strand": "GGGTTGAA", "E-score": -0.0721}
{"Strand": "CCCAAAGA", "E-score": 0.045}
{"Strand": "GGGAAATA", "E-score": 0.226}
{"data": "Study 3", "target": "Prothrombin, mature alpha-thrombin (F2, Homo sapiens, UniProt P00734)", "technique": "aptamer microarray, sandwich", "form": "DNA with 2'F-ANA", "matrix": "in vitro", "concentration": "200 nM", "setting": "whole 15-mer aptamer, many near background", "added": "Cy3 exosite-II aptamer, 400 nM", "direction": "higher = stronger binding"}
{"Strand": "GGTTGGTGTGGTTGG (2'F-ANA at 1 2 3 4 6 9 10 11 13)", "mean fluorescence intensity [a.u.]": 55.7}
{"Strand": "GGTTGGTGTGGTTGG (2'F-ANA at 1 2 3 5 6 7 14 15)", "mean fluorescence intensity [a.u.]": 48.4}
{"Strand": "GGTTGGTGTGGTTGG (2'F-ANA at 2 5 6 7 11 12 13)", "mean fluorescence intensity [a.u.]": 88.9}
{"data": "Single results of other studies"}
{"Molecule": "PhoQ, residues 284 288 289 292 302 303 SNGLAW", "target": "PhoP, residues 12 14 15 18 19 LYHSL (Escherichia coli, UniProt P23836)", "assay": "Sort-seq, refers to: YFP reporter", "test system": "E. coli", "conditions": "PhoQ-PhoP variant library, added: 10 µM Mg2+", "how to read": "baseline: high Mg2+ state, higher = stronger signaling", "endpoint": "fold induction", "result": 9.15}
{"note": "Excerpt of the above (study 1):"}
{"Strand": "ACTTAAGA", "E-score": 0.0236}
